Results pooled from the literature.
Lines come from different studies, so protocols differ. ± gives the spread as reported.
B1: enzyme H476A (Methanosarcina mazei, UniProt Q8PVB1); chain MSEQRSVPLREHLLALKPCRHGGLIQETSETYGIPENEILDFSANFNPLGSPFDYPENGLNFEDIIKKSCGKLLEYPDNRYVEFREAAARFVGLGVTPQSIVPGNGSTEIVRLVVESVIEKGDKVLLPWPTFGEYEMQCRITGAEPVCPSQEEVNTLPDEVLEEAKILFICNPNNPTGKLRTREELKVLAERCREHKTLLYVDEAFIELSDPSQSVADLPAENNYVFVMRSLTKDFAIPGIRMGFGIAPPAMADILNTARLSWNLGAIANNTGIALLNIEGGIDSPYLKKAREMILKEGETLKAKIDRIRGFEAGEVNVNFILVDVSKFMLNSSELTARLAARGVLVRDCVSFHGLGKNYIRVAVRTEKENDRLIAAIGDVITEWGREQAKNELQHVIEKASEEGIGGRKTCEYYPCHFEGQNCTFCFCPFYPCENEKTGGKWIQSSRGGRVWSCVDCHLVHKKEIAQKILDCLMAEGDTDELVKVAWKEVMEPIL
B2: UGT76G1 (Stevia rebaudiana, UniProt Q6VAB4); chain MENKTETTVRRRRRIILFPVPFQGHINPILQLANVLYSKGFSITIFHTNFNKPKTSNYPHFTFRFILDNDPQDERISNLPTHGPLAGMRIPIINEHGADELRRELELLMLASEEDEEVSCLITDALWYFAQSVADSLNLRRLVLMTSSLFNFHAHVSLPQFDELGYLDPDDKTRLEEQASGFPMLKVKDIKSAYSNWQILKEILGKMIKQTKASSGVIWNSFKELEESELETVIREIPAPSFLIPLPKHLTASSSSLLDHDRTVFQWLDQQPPSSVLYVSFGSTSEVDEKDFLEIARGLVDSKQSFLWVVRPGFVKGSTWVEPLPDGFLGERGRIVKWVPQQEVLAHGAIGAFWTHSGWNSTLESVCEGVPMIFSDFGLDQPLNARYMSDVLKVGVYLENGWERGEIANAIRRVMVDEEGEYIRQNARVLKQKADVSLMKGGSSYESLESLVSYISSL
B3: NUDT12 (Homo sapiens, UniProt Q9BQG2); chain MSSVKRSLKQEIVTQFHCSAAEGDIAKLTGILSHSPSLLNETSENGWTALMYAARNGHPEIVQFLLEKGCDRSIVNKSRQTALDIAVFWGYKHIANLLATAKGGKKPWFLTNEVEECENYFSKTLLDRKSEKRNNSDWLLAKESHPATVFILFSDLNPLVTLGGNKESFQQPEVRLCQLNYTDIKDYLAQPEKITLIFLGVELEIKDKLLNYAGEVPREEEDGLVAWFALGIDPIAAEEFKQRHENCYFLHPPMPALLQLKEKEAGVVAQARSVLAWHSRYKFCPTCGNATKIEEGGYKRLCLKEDCPSLNGVHNTSYPRVDPVVIMQVIHPDGTKCLLGRQKRFPPGMFTCLAGFIEPGETIEDAVRREVEEESGVKVGHVQYVACQPWPMPSSLMIGCLALAVSTEIKVDKNEIEDARWFTREQVLDVLTKGKQQAFFVPPSRAIAHQLIKHWIRINPNL
B4: UGT1A7 (Homo sapiens, UniProt Q9HAW7); chain GKLLVVPMDGSHWFTMQSVVEKLILRGHEVVVVMPEVSWQLGRSLNCTVKTYSTSYTLEDQDREFMVFADARWTAPLRSAFSLLTSSSNGIFDLFFSNCRSLFNDRKLVEYLKESCFDAVFLDPFDACGLIVAKYFSLPSVVFARGIFCHYLEEGAQCPAPLSYVPRLLLGFSDAMTFKERVWNHIMHLEEHLFCPYFFKNVLEIASEILQTPVTAYDLYSHTSIWLLRTDFVLEYPKPVMPNMIFIGGINCHQGKPVPMEFEAYINASGEHGIVVFSLGSMVSEIPEKKAMAIADALGKIPQTVLWRYTGTRPSNLANNTILVKWLPQNDLLGHPMTRAFITHAGSHGVYESICNGVPMVMMPLFGDQMDNAKRMETKGAGVTLNVLEMTSEDLENALKAVINDKSYKENIMRLSSLHKDRPVEPLDLAVFWVEFVMRHKGAPHLRPAAHDLTWYQYHSLDVIGFLLAVVLTVAFITFKCCAYGYRKCLGKKGRVKKAHKSKTH
B5: enzyme (Myxococcus xanthus, UniProt Q1DB04); chain MSFINYSSREINCKIVYYGPGLCGKTTNLQYIYNKTAAETKGKLISLSTETDRTLFFDFLPLSLGEIRGFKTRFHLYTVPGQVFYDASRKLILKGVDGVVFVADSQIERMEANMESLENLRINLAEQGYDLNKIPYVIQYNKRDLPNAVTVEEMRKALNHRNIPEYQAVAPTGVGVFDTLKAVAKLVLTELKKGG
B6: enzyme (Enterococcus faecalis, UniProt Q831E3); chain MKDLVYLNYAATSYKKFPATIEALTAYLAENQFMNYGRNAPLLREGLPLLETRQLLADFFQAPSAAQITFTNNATTSLNLALAGILQPGDHVITTMLEHHAVARPLHLLEKERGISVTYVACQKTGLLEVEDIQRAWRTNTKALVMTHASNVLGTILPIEECFQWAQQKGLLTILDAAQTAGFLPIKMTQMAIDVLAFTGHKSLYGLAGIGGLAFSERGAEAVKPLMAGGTGSHSNSFDQPSFLPDKFEAGTLNSLGILSLNSSIKELNKIGLAAIQKHERTLMQNFLNGLSGLPVTILGTKDVAQTVPVVSITLWNQEETIVAQQLAEQYGIMTRAGLHCAPLAHQTAGTLATGTLRFSFGWQTTPEEITWTIHALQELLI
B7: enzyme (Pediococcus pentosaceus, UniProt A0AB73HHR8); chain MKNYTDYFFDEQAFDLHDGGYVPLEVSDAPEKPLNVPPLLKPDKETATDVYYTVTAEAGETQLLPGAKTKTWGYNTSLLGQTIVYRRGQHTHVTLKNTLPELTTFHWHGANVSGPYVDGGCHAPVYPGESKHIDFTLEQPATTLWLHAHPCPSTAEQVWHGLAAMVIVKDDHEASLPLPRNYGVDDIPVILQDRRFHENNQWDYRADYDPDGVAGPTAMINGTINPYFDVTTQKVRLRFLDGANRREWRLHFSDDLPFTQIGGDGSLLPEPVKFTHLMLTCAERAEVIVDFGQYHEGDEVTLYTDDVPLLKFRIHAFKPDQTTLPDKLFDVKAPVVDPALPVRHVVMQGMDEGVAIDGKKFAMQRIDATQPIGKAQYWDVTNSNDAPGMVHPFHVHGTQFLVLSRNGHAPYPNEHGFKDTIGVNPGETVRLLVRFDLPGVYMYHCHIIEHEDGGMMAQIETFDPAKPKQEYKLMDMDTLMMALAKERGVKPSEIWMGGMQSYEKMGMKM

Molecule = B1 (enzyme H476A); tested on = Nc1ncnc2c1ncn2[C@@H]1O[C@H](COP(=O)(O)OP(=O)(O)OP(=O)(O)O)[C@@H](O)[C@H]1O; test = steady-state kinetics; conditions = pH 8.5, 25 °C, apparent, anoxic, added: L-Thr 10 mM; endpoint = Km; result = 108 µM
Molecule = enzyme N248Y/R246H (Arabidopsis thaliana, UniProt O24495); tested on = C[C@@H](O)C(=O)SC[C@H](NC(=O)CC[C@H](N)C(=O)O)C(=O)NCC(=O)O; test = steady-state kinetics; conditions = pH 7.2, 25 °C; endpoint = Km; result = 295 µM
Molecule = CCGACCGACCGA (dsDNA); tested on = Fibroin-modulator-binding protein-1 99-193 (Bombyx mori, UniProt Q5FBS0); test = ITC; test system = double-stranded DNA, one strand shown; endpoint = Kd; result = 8.56 ± 0.871 µM
Molecule = MPFGSLLDYV; tested on = HLA class I histocompatibility antigen, A alpha chain, allele A*02:01 (Homo sapiens, UniProt P04439); test = conformational ELISA; test system = peptide; conditions = concentration not given; how to read = relative to: positive control peptide, direction not given; endpoint = binding score; result = 3.4%
Molecule = enzyme (Pseudanabaena biceps, UniProt L8N0N6); tested on = NC(=O)c1ccc[n+]([C@@H]2O[C@H](COP(=O)(O)OP(=O)(O)OC[C@H]3O[C@@H](n4cnc5c(N)ncnc54)[C@H](O)[C@@H]3O)[C@@H](O)[C@H]2O)c1; test = steady-state kinetics; conditions = pH 7.4, 30 °C, apparent, cofactor varied; endpoint = Km; result = 920 µM
Molecule = TVQLIMQLMPF; tested on = HLA class I histocompatibility antigen, A alpha chain, allele A*01:01 (Homo sapiens, UniProt P04439); test = conformational ELISA; test system = peptide; conditions = concentration not given; how to read = relative to: positive control peptide, direction not given; endpoint = binding score; result = 1.9%
Molecule = B2 (UGT76G1); tested on = C=C1C[C@@]23CC[C@H]4[C@@](C)(CCC[C@@]4(C)C(=O)O[C@@H]4O[C@H](CO)[C@@H](O)[C@H](O)[C@H]4O)[C@@H]2CC[C@]1(O[C@@H]1O[C@H](CO)[C@@H](O)[C@H](O)[C@H]1O)C3; test = steady-state kinetics; conditions = pH 7.25, 40 °C; endpoint = Km; result = 123 µM
Molecule = B3 (NUDT12); tested on = Nc1ncnc2c1ncn2[C@@H]1O[C@H](COP(=O)(O)OP(=O)(O)OP(=O)(O)OP(=O)(O)OP(=O)(O)OC[C@H]2O[C@@H](n3cnc4c(N)ncnc43)[C@H](O)[C@@H]2O)[C@@H](O)[C@H]1O; test = steady-state kinetics; conditions = added: Mg2+; endpoint = Km; result = 390 µM
Molecule = B4 (UGT1A7); tested on = CC(C)=CCc1cc2c(cc1O)O[C@H](c1ccc(O)cc1)CC2=O; test = steady-state kinetics; conditions = pH 7.4; endpoint = Km; result = 22.4 µM
Molecule = B5 (enzyme); tested on = Nc1nc2c(ncn2[C@@H]2O[C@H](COP(=O)(O)OP(=O)(O)OP(=O)(O)O)[C@@H](O)[C@H]2O)c(=O)[nH]1; test = steady-state kinetics; conditions = pH 7.4, apparent, added: MglA 2 µM, MglB 4 µM; endpoint = Km; result = 1.05 µM
Molecule = B6 (enzyme); tested on = N[C@@H](C[SeH])C(=O)O; test = steady-state kinetics; conditions = pH 7.5, 25 °C, apparent; endpoint = Km; result = 3550 µM
Molecule = KDECVIATEV; tested on = human MAGI1-2/6 PDZ construct (MBP fusion); test = automated holdup; test system = peptide, crude extract; conditions = concentration not given, corrected by standard peak, unit not given; how to read = relative to: biotin control resin, higher = stronger binding; endpoint = binding intensity; result = -0.0537
Molecule = enzyme (Salvia miltiorrhiza, UniProt G3DSC6); tested on = O=C(/C=C/c1ccc(O)cc1)O[C@H](Cc1ccc(O)c(O)c1)C(=O)O; test = steady-state kinetics; conditions = pH 7.5, 30 °C, not purified; endpoint = Km; result = 196 µM
Molecule = B7 (enzyme); tested on = CCn1c(=NN=c2sc3cc(S(=O)(=O)O)ccc3n2CC)sc2cc(S(=O)(=O)O)ccc21; test = steady-state kinetics; conditions = pH 3.7, 24 °C; endpoint = Km; result = 960 µM
